Published values from different studies.
Lines come from different studies, so protocols differ. Numbers after ± are the reported error.

SMILES	test	system	setting	half-life
Oc1ccc(-c2nc(-c3ccc(Oc4ccccc4)cc3)no2)cc1	–	CD-1 mouse, plasma	intravenous, 50 mg/kg, single dose	4.4 h
CCC(=O)c1ccc2c(c1)sc(=O)n2CCNC12CC3CC(CC(C3)C1)C2	metabolic stability	rat, liver microsomes	1 µM, pH 7.4	0.072 h
COc1cccc(CN)c1O	–	male C57BL/6 mouse, brain	intraperitoneal, 200 mg/kg, single dose	0.46 h
CCC(=O)c1ccc2c(c1)sc(=O)n2CCN(C)C12CC3CC(CC(C3)C1)C2	metabolic stability	rat, liver microsomes	1 µM, pH 7.4	0.0205 h
Cn1nnc2c(C(N)=O)ncn2c1=O	–	FVB mouse, plasma	intravenous, 50 mg/kg	0.689 h
COc1cc(OC)c(/C=C/S(=O)(=O)Cc2ccc(OC)c(NCC(=O)O)c2)c(OC)c1	–	cancer patients, phase I, plasma	oral, 560 mg twice daily, day 21 cycle 1	4.03 ± 2.92 h
NC(=O)c1cnc2[nH]ccc2c1N[C@@H]1[C@@H]2CC3C[C@H]1C[C@@](O)(C3)C2	–	healthy Caucasian men, plasma	oral, 60 mg, single dose fasted	10 h
Cc1ccc(NC(=O)c2ccc(CN3CCN(C)CC3)cc2)cc1Nc1nccc(-c2cncc(-c3oncc3C)c2)n1	–	Parkinson's disease patients, plasma	oral, 50.0 mg once daily, day 7, 7-day dosing, mean	24.8 h
CCCc1ccc2c(c1)sc(=O)n2CCNC12CC3CC(CC(C3)C1)C2	metabolic stability	rat, liver microsomes	1 µM, pH 7.4	0.041 h
Nc1ccc(-c2nc(-c3ccc(Oc4ccc(C(F)(F)F)cc4)cc3)no2)cc1	–	CD-1 mouse, plasma	intravenous, 50 mg/kg, single dose	20 h
CNCc1ccc(-c2[nH]c3cc(F)cc4c3c2CCNC4=O)cc1	–	human, fed high-fat meal, plasma	oral, 600 mg, single dose, arithmetic mean	16.8 h

Excerpt of the above:
SMILES	test	system	setting	half-life
Cc1ccc(NC(=O)c2ccc(CN3CCN(C)CC3)cc2)cc1Nc1nccc(-c2cncc(-c3oncc3C)c2)n1	–	Parkinson's disease patients, plasma	oral, 50.0 mg once daily, day 7, 7-day dosing, mean	24.8 h
